Experimental data of several laboratories.
A part holds a random share of what one study measured.

Study 1
Target: Interferon regulatory factor 3, full length, phosphomimetic (IRF3, Homo sapiens, UniProt Q14653, residues 1-427, S386D/S396D/S398D/S402D/T404D/S405D)
Method: protein-binding microarray
Molecule type: double-stranded DNA, one strand shown
Matrix: in vitro
Concentration: 2540 nM top
Notes: 60-bp whole probe
Added: salmon DNA 0.4 mg/ml
Relative to: random background probes
Reading: higher = stronger binding
Shared flanks, not repeated: GCCTAGCAC … GTCTTGATTCGCTTGACGCTGCTG
Target sequence (chain): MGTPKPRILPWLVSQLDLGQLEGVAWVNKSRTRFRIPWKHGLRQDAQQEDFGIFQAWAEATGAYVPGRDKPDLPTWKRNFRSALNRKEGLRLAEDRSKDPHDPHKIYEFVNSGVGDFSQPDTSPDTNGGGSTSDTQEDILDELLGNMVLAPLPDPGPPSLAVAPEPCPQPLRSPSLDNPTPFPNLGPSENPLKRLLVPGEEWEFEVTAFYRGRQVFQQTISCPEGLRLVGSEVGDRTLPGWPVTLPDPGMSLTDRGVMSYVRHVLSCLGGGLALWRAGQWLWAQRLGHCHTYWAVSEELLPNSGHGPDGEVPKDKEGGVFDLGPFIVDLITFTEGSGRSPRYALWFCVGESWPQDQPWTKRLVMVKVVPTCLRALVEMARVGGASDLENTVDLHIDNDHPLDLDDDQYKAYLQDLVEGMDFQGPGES
| Strand | fitted relative affinity [z-score] |
| --- | --- |
| TCATTATGCTCTTTCTAACTGTGCTAG | 1.15 |
| TTAGATTTCGGAACTGGATTAGTGCTA | 4.15 |
| GACTATATCGGGTTTCGAGACGTGCTA | 1.04 |
| GCCCCACCCACTCTGGCCCCGTGCTAG | -0.226 |
| GACGAACTGAGTCTTGAGACGTGCTAG | -0.379 |
| GACGGACTTGGGACTGGGGACGTGCTA | -0.883 |
| TTAGGTTTCGGATTGGGTTAGTGCTAG | 6.26 |
| GACGATATCGGGTGTCGAGACGTGCTA | 0.0171 |
| TTAGATATCAGTTTGGATTAGTGCTAG | 0.787 |
| CTCCCCCTCAGATCTGCCGTCGTGCTA | 0.136 |
| TTAGATTTCCTTTTCCTTTAGTGCTAG | 8.12 |
| GCGATTTGAGGAGCTCGCTCGTGCTAG | -0.426 |
| GACGAACTGAGGCTCGAGACGTGCTAG | -0.5 |
| GACGGTATCCAACTGCTGACGTGCTAG | 1.96 |
| TTAGGTTTCGACTTTTGGTTAGTGCTA | 2.95 |
| GACGGCCTGCTTCTCCTGACGTGCTAG | -0.57 |
| TTAGGTTTCGACCCTGGGTTAGTGCTA | 1.94 |
| ATTCTCTTCTTGCATCTGGGTGTGCTA | 2.73 |
| TCATTTCTTTACTTCACACTGTGCTAG | 2.31 |
| GACGGTATCCTACTGATGACGTGCTAG | 2.55 |
| TTAGAACTGAGTATAGATTAGTGCTAG | -0.437 |

Study 2
Target: Histone acetyltransferase KAT6A, both winged helices, GST fusion (KAT6A, Homo sapiens, UniProt Q92794, residues 1-181)
Method: protein binding microarray
Molecule type: double-stranded DNA, one strand shown
Matrix: in vitro
Concentration: not given
Notes: 8-mer, flanks averaged, mean of 2 arrays, mostly near background
Relative to: not given
Reading: higher = stronger binding
Residues (chain): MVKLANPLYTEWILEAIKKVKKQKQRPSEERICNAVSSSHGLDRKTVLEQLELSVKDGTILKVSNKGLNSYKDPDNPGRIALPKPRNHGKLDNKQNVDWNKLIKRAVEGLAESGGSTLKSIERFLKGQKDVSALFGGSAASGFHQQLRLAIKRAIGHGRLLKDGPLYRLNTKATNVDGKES
| Strand | E-score |
| --- | --- |
| ACACCCGG | 0.117 |
| AAAGTTGC | -0.0299 |
| CGTTACTC | 0.00972 |
| AAGGCTTG | -0.125 |
| TGTATAAA | -0.0551 |
| ATGCAGAC | -0.0751 |
| CGGATACC | 0.127 |
| AGACGAAC | -0.0651 |
| AGGTCAGA | -0.0999 |
| CCAGTCCG | 0.113 |
| CTCACCTC | -0.159 |
| ACCTTCCC | -0.122 |
| ACAGACCC | -0.0639 |
| TGGGCACA | 0.0104 |
| ACTACACC | -0.03 |
| ACGAACAA | 0.217 |
| GATAAAGC | -0.0486 |
| AATGACAT | 0.038 |
| ATTCTCTA | -0.212 |
| CGCCAGTC | 0.0827 |
| AGGCACGC | 0.0683 |
| ATCGGAAG | 0.0492 |
| CTCGACTA | -0.203 |
| ACCGTGCG | 0.249 |
| AAGTTGCG | 0.015 |

Study 3
Target: Centromere-binding protein 1, full length, N-terminal tag (CBF1, Saccharomyces cerevisiae, UniProt P17106, residues 1-351)
Chain of UniProt P17106 (whole entry, looked up): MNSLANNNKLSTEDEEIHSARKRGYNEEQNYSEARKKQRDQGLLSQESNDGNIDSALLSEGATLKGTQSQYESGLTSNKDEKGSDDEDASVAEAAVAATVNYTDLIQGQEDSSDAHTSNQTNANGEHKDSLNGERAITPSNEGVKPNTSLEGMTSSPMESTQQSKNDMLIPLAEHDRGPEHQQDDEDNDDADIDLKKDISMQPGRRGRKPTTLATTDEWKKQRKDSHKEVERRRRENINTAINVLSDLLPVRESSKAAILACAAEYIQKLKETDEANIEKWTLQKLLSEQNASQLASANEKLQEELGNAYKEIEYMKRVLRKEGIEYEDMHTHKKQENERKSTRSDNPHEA
Method: protein-binding microarray
Molecule type: double-stranded DNA, one strand shown
Matrix: in vitro
Concentration: 0.8 µM
Notes: whole 60-bp probe, no competitor
Reading: higher = stronger binding
| Strand | fluorescence intensity [a.u.] |
| --- | --- |
| TGTACGAAGCTATCTCACGTGGTTATAGTAGTTAGGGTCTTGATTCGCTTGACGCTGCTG | 3640 |
| GAAAATACAAATAATCGTAACATCATCTCTGTCTAGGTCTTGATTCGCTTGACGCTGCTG | 496 |
| GAAATTACCATACGTGATCTTATTAAACTCTAGTAGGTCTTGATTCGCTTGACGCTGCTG | 802 |
| GAATTATACGGTACACATGTGGAGAAACAATTTTAGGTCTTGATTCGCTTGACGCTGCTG | 640 |
| GAAGCAGACATGTTGTTCGTGATGATCTTTCTTTAGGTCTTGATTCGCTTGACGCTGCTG | 529 |
| CTATAAAGAAAAGGTCATCACTTTTTTTCGTACTTCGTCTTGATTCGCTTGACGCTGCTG | 534 |
| GAAACGGTACGTATCCACGTGGAGAAGCACATTTAGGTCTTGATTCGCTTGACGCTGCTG | 2450 |
| GAAATGCACATCAGCCTCGTGACAGATGAGGATTAGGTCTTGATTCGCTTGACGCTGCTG | 1330 |
| CCTAACTACTATAGCCACGAAAAATAGCTTCGTACAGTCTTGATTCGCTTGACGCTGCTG | 523 |
| GAACTTCATTGTTCTTGTCTGATGATTCAAAAGTAGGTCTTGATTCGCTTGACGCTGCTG | 592 |
| CTAACCTTTCCTTATTGTGTGACCACAGCCGAATTCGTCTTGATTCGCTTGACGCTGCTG | 551 |
| CTAAAGTGATCACGTGGTCAGACAGTTTTCCAGTTCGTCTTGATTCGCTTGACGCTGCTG | 30400 |
| TGTACGAAGCTATACAACGTGGCTATAGTAGTTAGGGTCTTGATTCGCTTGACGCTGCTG | 566 |
| GAAAAATGAGAAACAGGTGAAATTTGAGATAAATAGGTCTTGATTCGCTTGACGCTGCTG | 504 |
| GAAGTCTGCTCTCTTCGTGTCATTCCTTATAGCTAGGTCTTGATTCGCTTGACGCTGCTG | 501 |
| CTATCCAGACAAAAGAACGTGCAGGCGCTTGGCTTCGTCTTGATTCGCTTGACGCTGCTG | 599 |
| CTACGGAAATCATGACATGTGCTATGGCCTGTGTTCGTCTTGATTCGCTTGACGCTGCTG | 872 |
| GAATTTAACACATTTCTCATGATCCTAATAGAATAGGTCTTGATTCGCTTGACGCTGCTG | 567 |
| CTAGCTCTGTTTAGTCACATGATTCTTTCCCAATTCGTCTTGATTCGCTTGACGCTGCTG | 6380 |

Study 4
Target: RNA binding protein fox-1 homolog 2, RRM domain, GST-SBP tag (RBFOX2, Homo sapiens, UniProt O43251-10, residues 100-194)
Method: RNA Bind-n-Seq
Molecule type: RNA
Matrix: in vitro
Concentration: 365 nM
Notes: natural RNA segment, single round, ends assumed
Relative to: no-protein control
Reading: higher = stronger binding
Residues (chain): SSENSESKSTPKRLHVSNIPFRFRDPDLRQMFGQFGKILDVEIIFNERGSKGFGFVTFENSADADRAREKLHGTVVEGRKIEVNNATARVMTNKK
| Strand | RBNS enrichment (R) |
| --- | --- |
| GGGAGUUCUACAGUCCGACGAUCUCUUAAAAACGUUUAAUGCCAGGCUGUGGUCAAAAUCUCUAUUUUAUUUGUUUCUCCAGUAUAUAGCUUUGUUUUAGCCUUUGUAAAUUACUUUUAUGAUAGUAGAAAUAUGGAAUUCUCGGGUGCCAA | 0.963 |
| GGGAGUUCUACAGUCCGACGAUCGCCGGAGCUAUUUAUGGCAAACACAUGCUUUUGUAUCUUGUCAUAGUCAUCCACAGAUGGCAAAACUGGACUUGAUUCUACUGGCAUGUAAGACAGGCGUGCUAGUGAGCUGGAAUUCUCGGGUGCCAA | 0.47 |
| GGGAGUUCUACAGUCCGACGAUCCUGUUUUGUUGUUUGAUUCAGCAAAAAUCUCCCAGUGACAACAUCGCAAUAGUUUUUUACUUCUCUUAGGUGGCUCUGGGAAUGGGAGAGGGGUAGGAUGUACAGGGGUAUGGAAUUCUCGGGUGCCAA | 1.15 |
| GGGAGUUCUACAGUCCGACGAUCAGAUUUUUAAAAUUUCAAAUCCUAAAUCACUUCUUGUAGGAGGGUUUUCAUUAACUGCAGUAUAUACAGUUCACUACAUAUGGGUUGUUUGAGUUUUUUGUGUGCUGUAUUGGAAUUCUCGGGUGCCAA | 1.76 |
| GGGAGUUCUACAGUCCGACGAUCAAAGGAGCCUUCUCAUCUCUGGCCGAGAACACUGCUGGGCUCCCAGGUAGCUGAAGGCCUCAGCCCACCCACUCCCUUCUUCCCUGUGUGGGGCUCAAGCCUGGUGCACUUGGAAUUCUCGGGUGCCAA | 0.326 |
| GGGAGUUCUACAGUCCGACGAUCUAAUUCCCAGCACCACGAAAUUGUUAUACAUACAUCCCUACCAGUCACAUUCCCUGUGUUCAGAGCCUGGAAAUGAAAUUGAGUUCAGUUCAGCCUCUCUGUAAUGAAUCUGGAAUUCUCGGGUGCCAA | 0.727 |
| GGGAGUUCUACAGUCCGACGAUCUGUGAAUGUGAAAACCUAACUGGUACACUUGAUCUUGUGUUCAUAUGAAAGUGCAAGUCUUUAUUAAUUUGGAUUGCCUGAACAGUGUAUCCCAUGAUGAUGAAGGAAAAUGGAAUUCUCGGGUGCCAA | 0.645 |
| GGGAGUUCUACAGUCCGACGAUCGUCCACUUGUCUGGAAGAAUAACAAGAAAGCUGCUGCUUUCGAGAUCACCCGCCAGAGGCGGGGCACGAGGCACACUGUGUUAUACUGCAUGAGCCAUGAAUUGGGCUAGUGGAAUUCUCGGGUGCCAA | 1.69 |
| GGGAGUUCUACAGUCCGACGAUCCUCUUUAUCUGUGUUACUAGUGCCUGGUAUGUAGUAGGUGCUCAAUAAAUGCAUAUUGAAUAACUAAGUGAAUUUCUUUUGGCAACUUUUUAAGGACAUGUGCUCUUAGUUGGAAUUCUCGGGUGCCAA | 1.37 |
| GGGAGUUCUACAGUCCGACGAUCAAGCGUUGUUAGGUUUUUGUGUAAGAUUCUUGCUGUAGCGUGGAUAGCUGUGAUUGGUGAGUCAACCGUCUGUGGCUACCAGUUACACUGAGAUUGUAACAGCAUUUUUAUGGAAUUCUCGGGUGCCAA | 0.453 |
| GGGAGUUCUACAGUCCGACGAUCUUCUCCUUAUGUUUAAAUGCACAGGCUUAUGUUUAAAUGAACAGAUGUAAAACACAAGCCAGACAGAUGGCAAAGACUAGACUUGCCCGCAAAGAAAUUGAGUUGAUUAGUGGAAUUCUCGGGUGCCAA | 1.71 |
| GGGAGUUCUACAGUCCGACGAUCUGCUAUCAUCAUUAACAGCGUAAUUAUACAAGCAUAUUUAAUGCUGAGUUUAAUUUAAUAUGUAAUACAUAUGGUAAUUGUAGGGUAAUACCCACAACAACUGUAGUUUCUGGAAUUCUCGGGUGCCAA | 0.341 |

Study 5
Target: Sal-like protein 4, full length isoform A (SALL4, Homo sapiens, UniProt Q9UJQ4, residues 1-1053)
Chain of UniProt Q9UJQ4 (whole entry, looked up): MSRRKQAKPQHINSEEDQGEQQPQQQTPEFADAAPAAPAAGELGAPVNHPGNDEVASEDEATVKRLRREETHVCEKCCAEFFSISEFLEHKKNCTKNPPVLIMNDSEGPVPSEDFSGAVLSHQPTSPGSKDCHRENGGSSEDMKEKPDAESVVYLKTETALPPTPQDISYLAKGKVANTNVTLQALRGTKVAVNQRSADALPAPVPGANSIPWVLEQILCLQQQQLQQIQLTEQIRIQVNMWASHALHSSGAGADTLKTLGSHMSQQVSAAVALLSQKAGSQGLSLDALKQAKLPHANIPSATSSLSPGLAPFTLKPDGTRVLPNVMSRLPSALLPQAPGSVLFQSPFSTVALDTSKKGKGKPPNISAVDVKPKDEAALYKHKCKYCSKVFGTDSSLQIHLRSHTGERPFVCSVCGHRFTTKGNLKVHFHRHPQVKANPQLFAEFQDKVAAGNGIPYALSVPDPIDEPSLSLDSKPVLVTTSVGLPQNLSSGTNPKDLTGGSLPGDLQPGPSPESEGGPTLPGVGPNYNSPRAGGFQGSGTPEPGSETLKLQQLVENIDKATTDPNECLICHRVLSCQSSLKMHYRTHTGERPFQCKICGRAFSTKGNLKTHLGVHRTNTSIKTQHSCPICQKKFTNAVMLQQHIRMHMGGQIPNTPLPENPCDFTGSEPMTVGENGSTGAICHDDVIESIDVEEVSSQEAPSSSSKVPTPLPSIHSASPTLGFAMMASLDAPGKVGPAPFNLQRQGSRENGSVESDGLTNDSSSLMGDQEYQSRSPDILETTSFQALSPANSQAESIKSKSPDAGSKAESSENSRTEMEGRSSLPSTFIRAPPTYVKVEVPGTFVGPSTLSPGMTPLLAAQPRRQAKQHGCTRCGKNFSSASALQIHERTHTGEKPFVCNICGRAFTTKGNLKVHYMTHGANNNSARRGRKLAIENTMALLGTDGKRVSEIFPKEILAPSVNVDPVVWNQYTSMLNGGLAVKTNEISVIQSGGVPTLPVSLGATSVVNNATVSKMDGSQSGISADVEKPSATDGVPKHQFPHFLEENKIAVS
Method: universal PBM
Molecule type: double-stranded DNA, one strand shown
Matrix: in vitro
Concentration: 600 nM
Notes: 8-mer, flanks averaged, mean of replicates
Reading: higher = stronger binding
| Strand | E-score |
| --- | --- |
| GGAGCAAC | -0.25 |
| AGCCTCCC | -0.217 |
| CAAACTAG | 0.0113 |
| AGATCGGA | 0.0879 |
| AGATCGCT | -0.107 |
| CTCGGGAA | -0.231 |
| GGCATTGA | 0.0138 |
| CAGGGCAA | -0.0695 |
| AGCAAGCA | -0.104 |
| GGCACTAA | -0.0958 |
| AGGTTTGC | -0.0503 |
| ATGCTGCG | -0.153 |
| GAGAGGGA | -0.14 |
| CGACTCGC | -0.127 |
| ACTCAGCT | -0.0482 |
| CGGAGTCC | -0.234 |
| ACGCAGCA | -0.187 |
| CAATAACG | 0.32 |
| GGTTATTA | 0.385 |
| AGGCTTCG | -0.241 |
| AGGGTCAG | -0.198 |
| AGGACAGG | -0.289 |
| CCCCAATC | -0.187 |
| GCAGACGA | -0.0243 |
